{"data": "Measured values collected from several papers", "nusB with NusE": "Transcription antitermination protein NusB, with NusE (nusB, Bacillus subtilis, UniProt P54520)", "HTR2C": "5-hydroxytryptamine receptor 2C (HTR2C, Homo sapiens, UniProt P28335)", "gag-pol integrase": "Gag-Pol polyprotein, integrase (gag-pol, Human immunodeficiency virus type 1 group M subtype B, UniProt P04585)", "HTR7": "5-hydroxytryptamine receptor 7 (HTR7, Homo sapiens, UniProt P34969)", "TGFBR2": "TGF-beta receptor type-2 (TGFBR2, Homo sapiens, UniProt P37173)", "note": "Values joined by “and” are separate records of one study, mostly repeats; a detail may differ. ± marks the error that the study gave."}
{"SMILES": "COc1ccc(-n2nc(C)c3conc3c2=O)cc1", "target": "GRM2 (Homo sapiens, UniProt Q14416)", "test": "cAMP accumulation, antagonist", "conditions": "10 µM, together with: glutamate 1 µM, forskolin", "inhibition": "-55%"}
{"SMILES": "COc1cc(C(=O)NS(=O)(=O)c2ccccc2C)ccc1Cc1cn(C)c2ccc(NC(=O)OC3CCCC3)cc12", "target": "LRRC8A/LRRC8C (Homo sapiens, UniProt Q8IWT6+Q8TDW0, L134K/L136K)", "test": "ion current, whole-cell patch clamp", "test system": "HCT LRRC8-/- cells", "conditions": "10 µM, +100 mV, L134K/L136K heteromers", "inhibition": "64% and 94.9% and 87.8% and 55.6% and 84.2%"}
{"SMILES": "O=C(O)c1cn(C2CC2)c2cc(N3CCNCC3)c(F)cc2c1=O", "target": "gyrA (Escherichia coli K-12, UniProt P0AES4)", "test": "enzyme activity, inhibitor, DNA supercoiling", "conditions": "100 µM", "inhibition": "91.5%"}
{"SMILES": "COc1ccc(F)cc1C(=O)NCc1ccc(-c2nn([C@@H](C)C(F)(F)F)c(N)c2C(N)=O)cc1", "target": "HCK (Homo sapiens, UniProt P08631)", "test": "target engagement, competitive chemoproteomics", "test system": "human PBMCs", "conditions": "10 µM", "inhibition": "33.7%"}
{"SMILES": "Cn1cnc(Br)c1C1=CN(c2ncnc3[nH]cnc23)CCS1", "target": "PRKD3 (Homo sapiens, UniProt O94806)", "test": "kinase activity, HotSpot", "conditions": "2 µM", "inhibition": "94.4%"}
{"SMILES": "CCNC(=O)Nc1cccc(OC/C=C\\COc2cccc(NC(=O)NCC)c2)c1", "target": "nusB with NusE", "test": "NusE binding, inhibitor, competitive ELISA", "conditions": "25 µM", "inhibition": "15%"}
{"SMILES": "CC(N)(Cc1c[nH]c2ccccc12)C(=O)O (racemic)", "target": "Sodium- and chloride-dependent neutral and basic amino acid transporter B(0+) (Slc6a14, Mus musculus, UniProt Q9JMA9)", "test": "transporter current", "test system": "Xenopus oocytes", "conditions": "1 mM", "inhibition": "92.3 ± 1.1%"}
{"SMILES": "NOCc1ccc2nc(-c3ccccc3)c(Nc3ccc(C(=O)O)cc3)n2c1", "target": "TDP1 (Homo sapiens, UniProt Q9NUW8)", "test": "enzyme activity, inhibitor", "conditions": "100 µM, unpurified compound", "inhibition": "-5.3% and 4.2% and 3.1%"}
{"SMILES": "CN1CCN(c2cc(-c3ccncc3)c(-c3ccc4ccccc4c3)nn2)CC1", "target": "ADCYAP1R1 (Homo sapiens, UniProt P41586)", "test": "antagonist, FLIPR", "conditions": "10 µM", "inhibition": "-13.8%"}
{"SMILES": "CC(C)(NC(=O)O[C@@H]1CN2CCC1CC2)c1csc(-c2ccc(F)cc2)n1", "target": "SETD7 (Homo sapiens, UniProt Q8WTS6)", "test": "enzyme activity, inhibitor", "conditions": "100 µM", "inhibition": "no inhibition"}
{"SMILES": "CN1[C@@H]2CC[C@H]1C[C@@H](OC(=O)C(CO)c1ccccc1)C2 (some centres unmarked)", "target": "Muscarinic acetylcholine receptor M2 (Rattus norvegicus, UniProt P10980)", "test": "radioligand binding", "test system": "rat", "conditions": "10 µM", "inhibition": "100%"}
{"SMILES": "CC1=NN(c2ccccc2)C(=O)C1", "target": "Nedd8-cullin1 interaction", "test": "neddylation, AlphaScreen", "conditions": "100 µM", "inhibition": "-7.6%"}
{"SMILES": "COc1cc(C(=O)c2c[nH]c3cc(-c4ccc(C(F)(F)F)cc4)ccc23)cc(OC)c1OC", "target": "Tubulin alpha-1B chain/TUBB2B (Bos taurus, UniProt P81947+Q6B856)", "test": "tubulin polymerization, turbidimetry", "conditions": "concentration not given", "inhibition": "inactive"}
{"SMILES": "COC(=O)c1ccc(OC/C=C\\COc2ccc(C(=O)OC)cc2)cc1", "target": "nusB with NusE", "test": "NusE binding, inhibitor, competitive ELISA", "conditions": "25 µM", "inhibition": "3%"}
{"SMILES": "NC/C(=C\\F)COc1cccc(Cn2c(=S)[nH]c(=O)c3[nH]cnc32)c1", "target": "Protein-lysine 6-oxidase (Homo sapiens, UniProt P28300)", "test": "enzyme activity, inhibitor", "conditions": "30 µM", "inhibition": "52.1%"}
{"SMILES": "Cc1ccnc(OC[C@H]2CN(CC(=O)N3CCc4ccccc43)CCO2)c1", "target": "HTR2C", "test": "radioligand binding", "conditions": "concentration not given, together with: [3H]mesulergine", "inhibition": "20.3%"}
{"SMILES": "Cn1cc(-c2ccccc2)c2ccc(Cl)nc21", "target": "gag-pol integrase", "test": "strand transfer, inhibitor", "test system": "HIV-1", "conditions": "10 µM", "inhibition": "14.4%"}
{"SMILES": "Clc1cccc(OC[C@@H]2CN(CCN3CCc4ccccc43)CCO2)c1", "target": "HTR2C", "test": "radioligand binding", "conditions": "concentration not given, together with: [3H]mesulergine", "inhibition": "79.1%"}
{"SMILES": "O=C(NO)c1ccc(CN2CCCCc3ccccc32)c(F)c1", "target": "HTR7", "test": "radioligand binding, radioligand displacement", "conditions": "10 µM, mean of replicates", "inhibition": "-1.05%"}
{"SMILES": "Clc1cncc(OC[C@H]2CN(CCN3CCc4ccccc43)CCO2)c1", "target": "HTR2C", "test": "radioligand binding", "conditions": "concentration not given, together with: [3H]mesulergine", "inhibition": "-14.6%"}
{"SMILES": "COc1ccc(-c2cn(C)c3nc(Cl)ccc23)cc1", "target": "gag-pol integrase", "test": "strand transfer, inhibitor", "test system": "HIV-1", "conditions": "10 µM", "inhibition": "56%"}
{"SMILES": "Fc1ccc(-c2ncn(-c3ccc4ccccc4c3)c2-c2ccncc2)cc1", "target": "TGFBR2", "test": "inhibitor", "conditions": "1 µM", "inhibition": "10%"}
{"SMILES": "COc1cc2c(cc1OC)C(=O)N(CCCCN1CCN(c3ccccc3OC)CC1)C2", "target": "HTR7", "test": "radioligand binding", "conditions": "concentration not given, together with: [3H]LSD", "inhibition": "91.8%"}
{"SMILES": "NC(=O)c1ccc(-c2nc(-c3ccc4c(c3)OCO4)c(-c3ccccn3)[nH]2)cc1", "target": "TGFBR2", "test": "inhibitor", "conditions": "1 µM", "inhibition": "2%"}
{"SMILES": "O=C1CCc2cc(OCCCCc3nnnn3C3CCCCC3)ccc2N1", "target": "Nedd8-cullin1 interaction", "test": "neddylation, AlphaScreen", "conditions": "100 µM", "inhibition": "11.2%"}
{"SMILES": "Cc1cc(-c2ccnc3[nH]cc(F)c23)cc(F)c1[C@@]1(O)[C@H](C)CN(C(=O)CN)C[C@@H]1C", "target": "ROCK1 and ROCK2", "test": "ATP probe binding, KiNativ, measured: Lys2 site", "test system": "HEK293T cell lysate", "conditions": "0.1 µM", "inhibition": "12.7%"}
{"SMILES": "Cc1ccc(C(=O)Nc2ccc3ccccc3c2)o1", "target": "SCN4A (Homo sapiens, UniProt P35499)", "test": "ion current, whole-cell patch-clamp", "conditions": "10 µM, hNaV1.4", "inhibition": "7.02%"}
{"SMILES": "Cc1nnc(C(=O)NC(C)(C)c2nc(C(=O)NCc3ccc(F)cc3)c(O)c(=O)n2C)o1", "target": "gag-pol integrase", "test": "strand transfer, inhibitor", "test system": "HIV-1", "conditions": "10 µM", "inhibition": "82.1%"}
{"SMILES": "COc1cccc(F)c1Cn1cnc(-c2ccncc2)c1-c1ccc(F)cc1", "target": "TGFBR2", "test": "inhibitor", "conditions": "1 µM", "inhibition": "42%"}
{"SMILES": "COc1c([C@H]2[C@H](C(=O)Nc3ccnc(C(N)=O)c3)O[C@@](C)(C(F)(F)F)[C@H]2C)ccc(F)c1F", "target": "SCN10A (Homo sapiens, UniProt Q9Y5Y9)", "test": "ion current, antagonist, whole-cell patch clamp", "test system": "HEK293T cells", "conditions": "10 nM, half-inactivated state (TP2)", "inhibition": "96.8%"}
{"SMILES": "O=C(CN1CCO[C@H](COc2cccc(Cl)c2)C1)N1CCc2ccccc21", "target": "HTR2C", "test": "radioligand binding", "conditions": "concentration not given, together with: [3H]mesulergine", "inhibition": "47.2%"}
{"SMILES": "CN(C(=O)n1cnc(-c2ccc[n+]([O-])c2)c1)C1CCCCC1", "target": "HTR2C", "test": "receptor binding", "conditions": "10 µM, subtype 5HT2C", "inhibition": "6.81%"}
{"SMILES": "COc1ccc2c(c1)C(=O)N(CCN1CCN(c3ccccc3OC)CC1)C2", "target": "HTR7", "test": "radioligand binding", "conditions": "concentration not given, together with: [3H]LSD", "inhibition": "5.3%"}
{"SMILES": "CCNC(=O)Nc1ccc(OC/C=C\\COc2ccc(CCC(=O)O)cc2)cc1", "target": "nusB with NusE", "test": "NusE binding, inhibitor, competitive ELISA", "conditions": "25 µM", "inhibition": "21%"}
{"SMILES": "c1cncc(OC[C@@H]2CN(CCN3CCc4ccccc43)CCO2)c1", "target": "HTR2A (Homo sapiens, UniProt P28223)", "test": "radioligand binding", "conditions": "concentration not given, together with: [3H]ketanserin", "inhibition": "61.8%"}
{"SMILES": "CC[C@@H]1[C@H](F)C(=O)N[C@@H]1COc1nccc2cc(C(N)=O)c(OC)cc12", "target": "GRK2 (Homo sapiens, UniProt P25098)", "test": "ATP-site probe binding, ActivX profiling, measured: BARK1", "test system": "THP-1 cell lysate", "conditions": "0.01 mM, Lys2 site", "inhibition": "5.6%"}
{"SMILES": "O=C1c2ccccc2CCN1CCCCN1CCN(c2cccc(Cl)c2Cl)CC1", "target": "HTR2C", "test": "radioligand binding", "conditions": "concentration not given, together with: [3H]mesulergine", "inhibition": "93.8%"}
{"SMILES": "O=C(NO)c1cncc(OS(=O)(=O)Oc2ccc(-n3ccnc3)cc2)c1", "target": "HDAC4 (Homo sapiens, UniProt P56524)", "conditions": "10 µM", "inhibition": "38%"}
{"note": "Excerpt of the above:"}
{"SMILES": "O=C(CN1CCO[C@H](COc2cccc(Cl)c2)C1)N1CCc2ccccc21", "target": "HTR2C", "test": "radioligand binding", "conditions": "concentration not given, together with: [3H]mesulergine", "inhibition": "47.2%"}
{"SMILES": "CN(C(=O)n1cnc(-c2ccc[n+]([O-])c2)c1)C1CCCCC1", "target": "HTR2C", "test": "receptor binding", "conditions": "10 µM, subtype 5HT2C", "inhibition": "6.81%"}
{"SMILES": "COc1ccc2c(c1)C(=O)N(CCN1CCN(c3ccccc3OC)CC1)C2", "target": "HTR7", "test": "radioligand binding", "conditions": "concentration not given, together with: [3H]LSD", "inhibition": "5.3%"}
{"SMILES": "CCNC(=O)Nc1ccc(OC/C=C\\COc2ccc(CCC(=O)O)cc2)cc1", "target": "nusB with NusE", "test": "NusE binding, inhibitor, competitive ELISA", "conditions": "25 µM", "inhibition": "21%"}
